Measured values gathered from unrelated publications.
Parts stem from different laboratories: compare values within a part only.

Series 1 — technique: protein-binding microarray; form: double-stranded DNA, one strand shown; medium: in vitro; tested at: not given; direction: higher = stronger binding
Target: Cyclic AMP-responsive element-binding protein 1 (CREB1, Homo sapiens, UniProt P16220, residues 1-327, full length assumed)
UniProt P16220, sequence (whole entry, looked up): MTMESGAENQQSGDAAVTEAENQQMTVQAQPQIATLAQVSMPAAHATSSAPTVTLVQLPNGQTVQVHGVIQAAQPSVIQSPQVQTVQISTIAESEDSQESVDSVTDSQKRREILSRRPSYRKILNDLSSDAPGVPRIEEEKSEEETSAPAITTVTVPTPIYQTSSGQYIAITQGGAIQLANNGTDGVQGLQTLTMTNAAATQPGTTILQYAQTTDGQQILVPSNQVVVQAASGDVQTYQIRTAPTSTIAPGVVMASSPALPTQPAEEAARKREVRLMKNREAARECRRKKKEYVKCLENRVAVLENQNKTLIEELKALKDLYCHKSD
Notes: k-mer, scored over probes, only values ≥0.25
With `ATAATTA` the E-score was 0.258.
`GTATGAC` gave an E-score of 0.364.
The E-score of `ACGTTAT` is reported as 0.386.
For `AGATGAC`, the E-score was 0.284.
With `GACGTCA` the E-score was 0.491.
With `CGCGTAA` the E-score was 0.317.
With `GACATCA` the E-score was 0.288.
`ACGTTTG` has an E-score of 0.264.
The E-score of `ACATGAC` is reported as 0.317.
`CGTCATA` gave an E-score of 0.489.
`ACGTAAC` gave an E-score of 0.431.
For `CTGTGAC`, the E-score was 0.306.
`CATTACG` has an E-score of 0.322.
`ACGTGTA` gave an E-score of 0.27.
`ACGTATG` has an E-score of 0.323.
With `GATGTGA` the E-score was 0.27.
`GTGAAAA` has an E-score of 0.255.
The E-score of `ACTATTA` is reported as 0.261.
The E-score of `ATTTACG` is reported as 0.305.
For `AATTACG`, the E-score was 0.334.
`GTGATGA` gave an E-score of 0.298.

Series 2 — target: UBE2T UBC core domain (UniProt Q9NPD8); technique: yeast two-hybrid; medium: yeast; notes: mostly zero background; relative to: not given; direction: higher = stronger interaction
B1: RNF14 RING domain (UniProt Q9UBS8); chain IKCFNSKLFLCSICFCEKLGSECMYFLECRHVYCKACLKDYFEIQIRDGQVQCLNCPEPKCPSVATPGQVK
B2: RNF32 RING domain (UniProt Q9H0A6); chain SLLQGDSVQPCPICKEEFELRPQVLLSCSHVFHKACLQAFEKFTNKKTCPLCRKNQYQTRVIH
B3: UBE4A RING domain (UniProt Q14139); chain LQQQEEETYADACDEFLDPIMSTLMCDPVVLPSSRVTVDRSTIARHLLSDQTDPFNRSPLTMDQIRPNTELKEKIQRWLAERKQQKEQLE
B4: TRIM38 RING domain (UniProt O00635); chain STKKMMEEATCSICLSLMTNPVSINCGHSYCHLCITDFFKNPSQKQLRQETFCCPQCRAPFHMDSLRP
B5: TRIM35 RING domain (UniProt Q9UPQ4); chain PSRSFKEELLCAVCYDPFRDAVTLRCGHNFCRGCVSRCWEVQVSPTCPVCKDRASPADLRT
B6: RNF5 RING domain (UniProt Q99942); chain ERGGAGATFECNICLETAREAVVSVCGHLYCWPCLHQWLETRPERQECPVCKAGISREKVVP
B7: RNF112 RING domain (UniProt Q9ULX5); chain QPMAPRELPTCSICLERLRDPISLDCGHDFCIRCFSTHRLPGCEPPCCPECRKICKQKRGLR
B8: MSL2 RING domain (UniProt Q9HCI7); chain LLPYFRQSLSCCVCGHLLQDPIAPTNSTCQHYVCKTCKGKKMMMKPSCSWCKDYEQFEENKQ
B9: TRIM15 RING domain (UniProt Q9C019); chain SLKVVHELPACTLCAGPLEDAVTIPCGHTFCRLCLPALSQMGAQSSGKILLCPLCQEEEQAETPMA
B10: RNF43 RING domain (UniProt Q68DV7); chain SGSSCSSAPVCAICLEEFSEGQELRVISCLHEFHRNCVDPWLHQHRTCPLCMFNITEGDSFS
B11: TRIM3 RING domain (UniProt O75382); chain VQPMDKQFLVCSICLDRYQCPKVLPCLHTFCERCLQNYIPAQSLTLSCPVCRQTSILPEQGV
Residues (chain): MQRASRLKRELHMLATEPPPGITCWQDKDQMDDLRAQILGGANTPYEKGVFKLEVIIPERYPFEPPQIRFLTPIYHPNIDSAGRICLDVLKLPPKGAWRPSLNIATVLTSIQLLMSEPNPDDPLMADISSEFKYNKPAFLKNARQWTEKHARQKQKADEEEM
`B1 (RNF14 RING domain)`: “lacZ reporter activity” 0.
`B2 (RNF32 RING domain)` — result for “lacZ reporter activity”: 0.
For `LKQVSIRENCCSLCCDEVADTQLKPCGHSDLCMDCALQLETCPLCRKEIVSRIRQI (RSPRY1 RING domain (UniProt Q96DX4))`, “lacZ reporter activity” read 0.
`B3 (UBE4A RING domain)`: “lacZ reporter activity” 0.
`FLKKLEQSFMCVCCQELVYQPVTTECFHNVCKDCLQRSFKAQVFSCPACRHDLGQNYIMI (UHRF2 RING domain (UniProt Q96PU4))` — result for “lacZ reporter activity”: 0.
`B4 (TRIM38 RING domain)` — result for “lacZ reporter activity”: 0.
Under “lacZ reporter activity”, `B5 (TRIM35 RING domain)` is recorded as 0.
Under “lacZ reporter activity”, `KRQCSDVDDICSICQAEFQKPILLICQHIFCEECMTLWFNREKTCPLCRTVISDHINKW (RNFT1 RING domain (UniProt Q5M7Z0))` is recorded as 0.
Under “lacZ reporter activity”, `B6 (RNF5 RING domain)` is recorded as 0.
For `B7 (RNF112 RING domain)`, “lacZ reporter activity” read 0.
For `B8 (MSL2 RING domain)`, “lacZ reporter activity” read 0.
Under “lacZ reporter activity”, `B9 (TRIM15 RING domain)` is recorded as 0.
`B10 (RNF43 RING domain)` — result for “lacZ reporter activity”: 0.
`B11 (TRIM3 RING domain)`: “lacZ reporter activity” 0.

Series 3 — technique: RNA Bind-n-Seq; form: RNA; medium: in vitro; tested at: 100 nM; relative to: input RNA pool; direction: higher = stronger binding
Target: RING finger protein unkempt homolog, zinc fingers 1-6, SBP tag (UNK, Homo sapiens, UniProt Q9C0B0, residues 30-357)
UniProt Q9C0B0, sequence (30-357, looked up): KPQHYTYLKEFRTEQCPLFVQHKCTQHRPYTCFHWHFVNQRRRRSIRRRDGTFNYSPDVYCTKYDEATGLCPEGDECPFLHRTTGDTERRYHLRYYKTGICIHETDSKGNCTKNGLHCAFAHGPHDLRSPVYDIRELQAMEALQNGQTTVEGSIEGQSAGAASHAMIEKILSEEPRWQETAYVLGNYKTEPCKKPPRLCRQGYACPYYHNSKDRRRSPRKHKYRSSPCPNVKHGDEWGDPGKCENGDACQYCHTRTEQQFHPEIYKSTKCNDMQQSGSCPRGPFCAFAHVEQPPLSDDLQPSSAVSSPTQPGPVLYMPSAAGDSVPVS
Notes: RNA with constant flanks, vertebrate orthologous sites, ends assumed
Constant ends, left off below: GGGAGUUCUACAGUCCGACGAUC … CAACAGAGGAUUGAGCAUCA
With `UGUACAUCCGCAUAACUCUCAAGACCCUUCUAACCCUGUGACCCCUCAUGCAUUUAACCGUACCCACACAUCUGUUUUCUGUAAAUAGCAGGAUAAAUGCAAAGGGCCUCCCUGGAGCUU` the bound/input enrichment was 0.225 ratio.
The bound/input enrichment of `UUGUUUUGUUUUGUUUUUAAUUUAAUUAUUCCUUUUGGGGGUAAAGUUUGCUCUACCAAAUAGUGAUUGUAACAAAUUGAUCUGUUUUGGAUGUUGCUAUAGUGACAUGCAGUUAUAUAU` is reported as 0.529 ratio.
For `CACAUCUGGCGAUAUUUGGCCUGGCCUUUCAGCUUAUGAUAAUAGUCCCCGGUCACCCCAUAGUCCUUCACCUAUUGCUACACCACCUAGUCAGAGCUCAUCUUGUUCUGAUGCCCCCAU`, the bound/input enrichment was 1.04 ratio.
With `GACCUCCUGAACUUCUGGCUUUCAAGCUGUGGCUCUUUUAGAUACUGGUUUUAUUUUCUUUACAAUUUUCCCGCCUUUCUUCCCCUGUUCCCAAGGUUUGACUCAUGGAUCUUACUCUUC` the bound/input enrichment was 3.8 ratio.
`UCUUUUUUUUUGCACAUGACAGUGUUUGUAUUGAGGACCUUCCAAGGAAGAGGGGUGCUGUAGCAGUGGUGCCUGGGUGCCUGGCCUCCAGUGUCCCACCUCCUUCACCACCCCACUUGG` has a bound/input enrichment of 0.279 ratio.
The bound/input enrichment of `AUUACAGCAAAAGAGCCAAGCAGUAGCAUUGUUGUUGGGUUUUUUUUAAUGUAAAAAAAAUAGGUCCAGACUUUGUUUCCGUAUUCAAUCUUAAAAAUAAAAAAAUACCUCAGUACUGUU` is reported as 0.348 ratio.
For `GUGUUGGUGCAGAGUGCUCUGUACCAGUGCUCAUCAUCCCUUCUUCAUACCAACUGUCCCUAGUUAUAGGAAUUUAAUAUUUUUAAAAGUUUUACAUUGCUGUAUAUUCAAAGAUUUGUU`, the bound/input enrichment was 1.02 ratio.
`GGAAAAUUUUAAUCAAGAAUCAGAAGGUAGAAGUACAGGACCGUGGUUGUCUUCCUCCCUUAGAAAUAGAUGCACACCUUUGUUCUCUAGGAGGAGGCGAGAGGGAAGAGAUGAAUCUUC` has a bound/input enrichment of 0.761 ratio.
For `AGAGGAUUAGGUUCCAUCCUUUACGUGUUUAAAAAAAAGCAUAAAAACAUUUUAAAAACAUAGAAAAAUUCAGCAAACCAUUUUUAAAGUAGAAGAGGGUUUUAGGUAGAAAAACGUAUU`, the bound/input enrichment was 0.902 ratio.
The bound/input enrichment of `GACGAAGAUGGUUGUACAUUAUUCAUUUAGAAAAUAUAAAAAUUCAUUUUGUUUUGAAGCUAGUUAUUAAACUGGAAUAGCAGUUAUAUCCCUGAGAAUGGGGCCCUUCUCCUGACAUUC` is reported as 3.31 ratio.
For `GAGCUAAAGGAGUUAGCAUCUUUAUUUUUGUAUCAAAGAUAAAGGUUAUUUUGAAAUUAUUAGGGUUUUUACACAGCUCUGGAAUCUGUUGCUUUUGUAAGCCAAUUGUUUGAUCUUAGG`, the bound/input enrichment was 1.62 ratio.

Series 4 — technique: RNA Bind-n-Seq; form: RNA; medium: in vitro; tested at: 200 nM; notes: whole 134-nt RNA, ends assumed; with: 150 mM LiCl; relative to: input library; direction: higher = stronger binding; library: 7-deaza-guanosine replaces G
Target: Fragile X messenger ribonucleoprotein 1, C-terminal low-complexity region (Fmr1, Mus musculus, UniProt P35922)
Constant ends, left off below: GGGAGUUCUACAGUCCGACGAUC … UGGAAUUCUCGGGUGUCAAGG
`UCAAGUCCUGUGCUACACAUCGUAUGUACCGAAUCGGUUUUUUUGGAGGAAAGGAAAGUAUUAUGUUACGCCGUUCGGAUCUGCACUUCC` gave a log2 enrichment of -0.355.
With `UCAAGUCCUGUGCUACACAUCGUAUGUACCGAAUCGGUGGAAAGGUUUUUUUGGAAAGUAUUAUGUUACGCCGUUCGGAUCUGCACUUCC` the log2 enrichment was -1.28.
The log2 enrichment of `UACCCUCGUGCCCCUGUUUUUCCUGGCCGUGGUAGUUACUCAAACAGAGGGAACUACAACAGAGGUGGAAUGCCCAACAGAGGGAACUAC` is reported as -1.28.
The log2 enrichment of `GUCCUGUGCUACACAUCGUAUGUACCGAAUCGGGAAAAAGGGAAAAAGGGGAAAAAGGGAAAGUAUUAUGUUACGCCGUUCGGAUCUGCA` is reported as 0.604.
The log2 enrichment of `AAGUCCUGUGCUACACAUCGUAUGUACCGAAUCGGGAAAGGGAAAAAAAGGGAGGGAAAGUAUUAUGUUACGCCGUUCGGAUCUGCACUU` is reported as 0.0874.
With `UCUCAGCAGGCGCAUCUACACUAGUGACCUGAGGAGAGAAACCCUAACCCCACAAUGGCUGCAUCUUCUCUGAAGACGAGACUGAUGCUC` the log2 enrichment was 0.765.
The log2 enrichment of `UUGUGGUAUUUUAUUUACUUAUUUUUUUAAAUCUUCCAUUACAGCCAUGCCUUUCUUGGACAUCCAGAAAAGGUUCGGCCUUAACAUAGA` is reported as 1.69.
With `GGAUCAAAGCAAGUUGGAGAAACAUCAGCACCUGGAGACACCUUAGAUGGCACACCUCGUACUCUCAAUACUGUCUUUGAUUUCCCACCA` the log2 enrichment was 1.05.
With `UUAGUGAAUGUAUAGAAGGAGUAAAGGUAGAGCACAAUCCUGACCUGUCAGUUACUGUCAGCACCAAAAAAUCCCACCAGACAUGGACCU` the log2 enrichment was 1.16.
The log2 enrichment of `CAAGUCCUGUGCUACACAUCGUAUGUACCGAAUCGGAGGUUUUUGGAAAAAAAGGAAAGUAUUAUGUUACGCCGUUCGGAUCUGCACUUC` is reported as -0.845.
`ACCAUGCAGGUGGGCAUCUUUGGGAAGUGGGGCAAGGGGGGGAUAGAAAGGGGGGUAACACUUUGGGAACAGGUGGUCCCAGGUCGUUUC` has a log2 enrichment of 1.

Some of these lines once more (series 2):
Under “lacZ reporter activity”, `B5 (TRIM35 RING domain)` is recorded as 0.
Under “lacZ reporter activity”, `B6 (RNF5 RING domain)` is recorded as 0.
For `B7 (RNF112 RING domain)`, “lacZ reporter activity” read 0.
